{"data": "Results gathered from unrelated publications", "note": "Numbered parts are unrelated; each lists some results of a single study. pEC50: −log10 of the molar value.", "sequence of UniProt Q9HAZ1 (whole entry, looked up)": "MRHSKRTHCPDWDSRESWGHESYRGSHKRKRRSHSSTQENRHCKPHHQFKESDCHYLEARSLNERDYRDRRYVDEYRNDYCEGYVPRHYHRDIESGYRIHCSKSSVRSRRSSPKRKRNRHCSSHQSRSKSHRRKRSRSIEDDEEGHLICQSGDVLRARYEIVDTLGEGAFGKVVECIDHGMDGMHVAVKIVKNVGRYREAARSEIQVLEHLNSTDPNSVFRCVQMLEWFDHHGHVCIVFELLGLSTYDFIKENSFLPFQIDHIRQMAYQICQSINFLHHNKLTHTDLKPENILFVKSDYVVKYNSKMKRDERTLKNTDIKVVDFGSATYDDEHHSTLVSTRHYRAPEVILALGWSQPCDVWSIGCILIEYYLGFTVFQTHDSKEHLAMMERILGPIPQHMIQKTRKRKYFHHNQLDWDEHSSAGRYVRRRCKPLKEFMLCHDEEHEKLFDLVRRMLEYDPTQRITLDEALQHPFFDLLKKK", "sequence of UniProt Q9H4A3 (whole entry, looked up)": "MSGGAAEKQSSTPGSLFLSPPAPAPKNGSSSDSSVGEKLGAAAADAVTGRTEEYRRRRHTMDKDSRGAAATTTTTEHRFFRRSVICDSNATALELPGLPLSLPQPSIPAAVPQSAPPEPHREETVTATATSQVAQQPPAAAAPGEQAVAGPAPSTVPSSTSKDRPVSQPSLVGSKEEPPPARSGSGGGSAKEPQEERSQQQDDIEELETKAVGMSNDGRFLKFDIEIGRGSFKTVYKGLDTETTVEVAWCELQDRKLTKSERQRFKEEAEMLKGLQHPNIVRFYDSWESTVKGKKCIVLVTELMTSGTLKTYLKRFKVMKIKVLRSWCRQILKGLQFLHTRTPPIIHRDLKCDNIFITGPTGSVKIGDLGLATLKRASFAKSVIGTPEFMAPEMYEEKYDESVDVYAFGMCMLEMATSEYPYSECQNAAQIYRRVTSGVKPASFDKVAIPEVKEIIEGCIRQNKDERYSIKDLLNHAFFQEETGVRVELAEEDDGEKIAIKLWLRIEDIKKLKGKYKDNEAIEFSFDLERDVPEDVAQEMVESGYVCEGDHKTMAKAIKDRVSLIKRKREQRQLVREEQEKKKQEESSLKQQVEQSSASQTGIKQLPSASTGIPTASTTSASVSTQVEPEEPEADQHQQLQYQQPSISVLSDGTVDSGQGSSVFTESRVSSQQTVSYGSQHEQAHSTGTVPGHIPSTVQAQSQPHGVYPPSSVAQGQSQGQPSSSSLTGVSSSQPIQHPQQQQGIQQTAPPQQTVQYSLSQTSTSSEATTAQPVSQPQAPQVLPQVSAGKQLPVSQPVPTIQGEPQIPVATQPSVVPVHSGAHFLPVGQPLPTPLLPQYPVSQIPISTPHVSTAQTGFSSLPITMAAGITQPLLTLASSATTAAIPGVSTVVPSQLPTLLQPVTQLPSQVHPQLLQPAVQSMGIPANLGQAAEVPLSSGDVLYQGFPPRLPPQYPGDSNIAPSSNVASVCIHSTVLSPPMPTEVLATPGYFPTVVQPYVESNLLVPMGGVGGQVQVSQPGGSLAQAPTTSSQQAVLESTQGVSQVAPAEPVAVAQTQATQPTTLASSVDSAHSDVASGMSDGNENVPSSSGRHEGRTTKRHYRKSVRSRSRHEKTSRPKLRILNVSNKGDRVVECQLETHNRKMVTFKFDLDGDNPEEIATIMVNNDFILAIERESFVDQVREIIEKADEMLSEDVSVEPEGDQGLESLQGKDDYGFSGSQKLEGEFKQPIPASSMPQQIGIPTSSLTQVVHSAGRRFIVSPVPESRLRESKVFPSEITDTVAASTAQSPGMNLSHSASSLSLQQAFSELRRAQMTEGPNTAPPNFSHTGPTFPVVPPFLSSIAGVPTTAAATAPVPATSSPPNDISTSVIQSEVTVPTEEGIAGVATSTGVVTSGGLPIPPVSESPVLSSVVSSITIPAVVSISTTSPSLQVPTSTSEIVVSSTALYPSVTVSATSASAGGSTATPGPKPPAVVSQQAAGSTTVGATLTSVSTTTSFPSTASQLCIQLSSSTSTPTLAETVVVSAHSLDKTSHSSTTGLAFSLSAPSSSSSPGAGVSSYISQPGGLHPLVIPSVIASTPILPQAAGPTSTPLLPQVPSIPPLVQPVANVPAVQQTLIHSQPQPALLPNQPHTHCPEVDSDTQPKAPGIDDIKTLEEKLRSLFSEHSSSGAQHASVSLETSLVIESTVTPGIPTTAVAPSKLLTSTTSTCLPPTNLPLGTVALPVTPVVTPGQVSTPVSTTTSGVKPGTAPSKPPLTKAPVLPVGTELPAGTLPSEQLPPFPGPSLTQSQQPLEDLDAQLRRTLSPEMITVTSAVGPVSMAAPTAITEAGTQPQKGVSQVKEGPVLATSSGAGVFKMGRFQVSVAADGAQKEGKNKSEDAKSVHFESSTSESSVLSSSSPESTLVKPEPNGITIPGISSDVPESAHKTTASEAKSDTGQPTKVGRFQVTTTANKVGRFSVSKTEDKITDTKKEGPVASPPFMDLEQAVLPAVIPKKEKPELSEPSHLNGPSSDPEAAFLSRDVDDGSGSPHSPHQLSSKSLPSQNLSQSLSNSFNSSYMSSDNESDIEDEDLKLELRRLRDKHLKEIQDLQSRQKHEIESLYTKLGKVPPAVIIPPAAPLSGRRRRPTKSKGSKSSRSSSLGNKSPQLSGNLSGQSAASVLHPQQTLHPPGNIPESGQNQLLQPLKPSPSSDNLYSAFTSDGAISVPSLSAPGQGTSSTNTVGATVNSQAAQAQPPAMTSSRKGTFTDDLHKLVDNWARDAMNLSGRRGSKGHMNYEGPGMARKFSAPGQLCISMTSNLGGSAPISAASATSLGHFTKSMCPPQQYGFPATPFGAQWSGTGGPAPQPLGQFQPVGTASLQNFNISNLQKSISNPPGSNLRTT", "sequence of UniProt Q16539 (whole entry, looked up)": "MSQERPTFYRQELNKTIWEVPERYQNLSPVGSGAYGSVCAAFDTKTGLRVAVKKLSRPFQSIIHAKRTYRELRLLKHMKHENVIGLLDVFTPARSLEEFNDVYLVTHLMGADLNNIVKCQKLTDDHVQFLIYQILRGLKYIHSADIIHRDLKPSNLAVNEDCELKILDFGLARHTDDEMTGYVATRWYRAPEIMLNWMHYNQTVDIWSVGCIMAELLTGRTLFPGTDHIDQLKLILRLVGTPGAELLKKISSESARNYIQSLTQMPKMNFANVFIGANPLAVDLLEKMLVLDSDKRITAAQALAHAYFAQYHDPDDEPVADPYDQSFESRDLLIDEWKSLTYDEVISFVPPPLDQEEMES", "sequence of UniProt Q9HBH9 (whole entry, looked up)": "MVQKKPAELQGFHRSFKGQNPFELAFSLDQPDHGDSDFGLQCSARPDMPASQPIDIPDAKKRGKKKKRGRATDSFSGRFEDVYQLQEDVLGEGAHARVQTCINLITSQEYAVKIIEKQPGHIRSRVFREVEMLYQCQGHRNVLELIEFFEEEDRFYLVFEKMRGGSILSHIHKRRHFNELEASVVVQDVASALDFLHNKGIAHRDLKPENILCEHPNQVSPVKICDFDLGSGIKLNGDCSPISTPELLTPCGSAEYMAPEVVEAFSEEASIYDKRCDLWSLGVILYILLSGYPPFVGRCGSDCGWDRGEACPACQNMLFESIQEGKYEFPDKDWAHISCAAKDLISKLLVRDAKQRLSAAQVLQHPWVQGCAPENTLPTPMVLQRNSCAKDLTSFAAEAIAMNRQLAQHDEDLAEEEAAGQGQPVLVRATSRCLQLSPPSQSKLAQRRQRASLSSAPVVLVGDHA", "sequence of UniProt P49674 (whole entry, looked up)": "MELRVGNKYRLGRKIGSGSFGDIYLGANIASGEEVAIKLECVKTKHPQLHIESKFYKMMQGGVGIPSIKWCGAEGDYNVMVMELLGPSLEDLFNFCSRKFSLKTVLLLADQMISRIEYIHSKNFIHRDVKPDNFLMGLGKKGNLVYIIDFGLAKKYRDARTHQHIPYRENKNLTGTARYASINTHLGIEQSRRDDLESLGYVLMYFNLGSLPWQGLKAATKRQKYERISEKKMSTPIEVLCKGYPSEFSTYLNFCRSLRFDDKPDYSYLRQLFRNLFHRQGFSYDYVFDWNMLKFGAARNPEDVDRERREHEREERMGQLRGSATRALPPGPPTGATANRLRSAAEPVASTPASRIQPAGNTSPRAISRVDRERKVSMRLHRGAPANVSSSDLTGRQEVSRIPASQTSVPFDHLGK"}
{"data": "Block 1", "SMILES": "C[C@H](c1cccc(C#N)c1)n1cc(Cl)cc(C(N)=O)c1=N", "read-out": "cell-free assay", "method": "competition with immobilised ligand", "concentration": "1 µM"}
{"target": "CDKL5 (Homo sapiens, UniProt O76039)", "remaining binding [%]": 73}
{"target": "STK36 (Homo sapiens, UniProt Q9NRP7)", "remaining binding [%]": 75}
{"target": "MAPK14 (Homo sapiens, UniProt Q16539)", "remaining binding [%]": 100}
{"target": "CDC42BPA (Homo sapiens, UniProt Q5VT25)", "remaining binding [%]": 100}
{"target": "WNK1 (Homo sapiens, UniProt Q9H4A3)", "remaining binding [%]": 89}
{"target": "CLK4 (Homo sapiens, UniProt Q9HAZ1)", "remaining binding [%]": 100}
{"target": "ERBB4 (Homo sapiens, UniProt Q15303)", "remaining binding [%]": 100}
{"target": "Ribosomal protein S6 kinase alpha-2, N-terminal kinase domain (RPS6KA2, Homo sapiens, UniProt Q15349)", "remaining binding [%]": 97}
{"target": "COQ8B (Homo sapiens, UniProt Q96D53)", "remaining binding [%]": 100}
{"target": "CDK11A (Homo sapiens, UniProt Q9UQ88)", "remaining binding [%]": 100}
{"target": "VRK2 (Homo sapiens, UniProt Q86Y07)", "remaining binding [%]": 79}
{"target": "MKNK2 (Homo sapiens, UniProt Q9HBH9)", "remaining binding [%]": 100}
{"target": "CSNK1E (Homo sapiens, UniProt P49674)", "remaining binding [%]": 99}
{"target": "MAPK4 (Homo sapiens, UniProt P31152)", "remaining binding [%]": 82}
{"target": "WNK4 (Homo sapiens, UniProt Q96J92)", "remaining binding [%]": 97}
{"target": "PIK3CA (Homo sapiens, UniProt P42336, E545K)", "remaining binding [%]": 82}
{"target": "NEK9 (Homo sapiens, UniProt Q8TD19)", "remaining binding [%]": 79}
{"target": "GSK3A (Homo sapiens, UniProt P49840)", "remaining binding [%]": 61}
{"data": "Block 2", "SMILES": "CC(C)n1cnc(-c2ccc(F)cc2)c1-c1ncc(C(=O)Nc2ccc(N3CCN(C)CC3)cc2)[nH]1", "method": "phase 2a trial", "host": "idiopathic pulmonary fibrosis patients"}
{"measured": "drug eruption", "dose": "dose not given", "notes": "grade 1, all arms pooled", "adverse event incidence": "0%"}
{"measured": "general and administration site disorders", "dose": "60 mg once daily", "notes": "grade 4", "adverse event incidence": "0%"}
{"measured": "hydroxybutyrate dehydrogenase increased", "dose": "30 mg once daily", "notes": "grade 4", "adverse event incidence": "0%"}
{"measured": "arthritis", "dose": "30 mg once daily", "notes": "grade 5", "adverse event incidence": "0%"}
{"measured": "appendicitis", "dose": "dose not given", "notes": "grade 5, all arms pooled", "adverse event incidence": "0%"}
{"measured": "infection", "dose": "dose not given", "notes": "grade 4, all arms pooled", "adverse event incidence": "0%"}
{"measured": "arthritis", "dose": "60 mg once daily", "notes": "grade 3", "adverse event incidence": "0%"}
{"measured": "infection", "dose": "60 mg once daily", "notes": "grade 3", "adverse event incidence": "0%"}
{"measured": "weight decreased", "dose": "dose not given", "notes": "grade 2, all arms pooled", "adverse event incidence": "0%"}
{"measured": "drug eruption", "dose": "dose not given", "notes": "grade 3, all arms pooled", "adverse event incidence": "0%"}
{"measured": "gingivitis", "dose": "30 mg once daily", "notes": "grade 2", "adverse event incidence": "0%"}
{"measured": "drug eruption", "dose": "60 mg once daily", "notes": "grade 5", "adverse event incidence": "0%"}
{"measured": "ECG ST segment abnormal", "dose": "30 mg once daily", "notes": "grade 4", "adverse event incidence": "0%"}
{"measured": "immunoglobulins increased", "dose": "60 mg once daily", "notes": "grade 3", "adverse event incidence": "0%"}
{"measured": "allergic conjunctivitis", "dose": "30 mg once daily", "notes": "grade 5", "adverse event incidence": "0%"}
{"measured": "carotid intima-media thickening", "dose": "60 mg once daily", "notes": "grade 3", "adverse event incidence": "0%"}
{"measured": "arthritis", "dose": "30 mg once daily", "notes": "grade 1", "adverse event incidence": "0%"}
{"data": "Block 3", "target": "Serine/threonine-protein kinase Sgk3 (SGK3, Homo sapiens, UniProt Q96BR1)", "read-out": "enzyme activity", "action": "inhibitor", "concentration": "0.5 µM", "reference": "control", "sequence of UniProt Q96BR1 (whole entry, looked up)": "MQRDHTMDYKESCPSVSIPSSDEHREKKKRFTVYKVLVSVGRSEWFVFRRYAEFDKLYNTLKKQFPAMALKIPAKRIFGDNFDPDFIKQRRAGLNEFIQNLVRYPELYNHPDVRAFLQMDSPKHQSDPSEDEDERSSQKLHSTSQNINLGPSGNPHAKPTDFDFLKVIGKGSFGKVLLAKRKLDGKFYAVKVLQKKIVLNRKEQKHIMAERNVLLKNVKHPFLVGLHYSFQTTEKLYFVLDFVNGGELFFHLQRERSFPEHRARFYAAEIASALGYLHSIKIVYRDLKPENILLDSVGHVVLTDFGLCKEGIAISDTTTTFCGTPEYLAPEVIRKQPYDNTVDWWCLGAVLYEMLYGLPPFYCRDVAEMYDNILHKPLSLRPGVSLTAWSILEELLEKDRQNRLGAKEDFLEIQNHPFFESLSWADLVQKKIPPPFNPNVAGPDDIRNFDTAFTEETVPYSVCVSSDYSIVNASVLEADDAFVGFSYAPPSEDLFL"}
{"SMILES": "N#C/C(=C(/N)SC1C=CC=CC1)c1cccc(C(O)c2ccncc2)c1 (stereo not shown)", "remaining activity [%]": 102}
{"SMILES": "COc1cc2c(N3CCN(C(=O)Nc4ccc(OC(C)C)cc4)CC3)ncnc2cc1OCCCN1CCCCC1", "remaining activity [%]": 102}
{"SMILES": "CCN(CC)CCCCN1c2ccccc2Oc2ccc(Cl)cc21", "remaining activity [%]": 101}
{"SMILES": "O=Nc1c(-c2c(O)[nH]c3ccccc23)[nH]c2ccccc12", "remaining activity [%]": 102}
{"SMILES": "O=C1c2ccccc2-c2nc3nnnn3nc21", "remaining activity [%]": 90.4}
{"SMILES": "COc1cc2c(Nc3ccc(Br)cc3F)ncnc2cc1OCC1CCN(C)CC1", "remaining activity [%]": 97.9}
{"SMILES": "CC(C)n1cnc2c(Nc3cccc(Cl)c3)nc(NCCO)nc21", "remaining activity [%]": 97.1}
{"SMILES": "FC(F)(F)c1ccc(/C=C/c2nc(COc3ccc(CCCCn4ccnn4)cc3)co2)cc1", "remaining activity [%]": 89.2}
{"SMILES": "Nc1nc(Nc2ccc(S(N)(=O)=O)cc2)nn1C(=S)Nc1c(F)cccc1F", "remaining activity [%]": 98.4}
{"SMILES": "O=c1c(-c2ccc(F)cc2)c(-c2ccncc2)[nH]n1-c1ccc(Cl)cc1", "remaining activity [%]": 100}
{"SMILES": "CCCCc1c(-c2ccc(O)cc2)[nH]c2nccnc12", "remaining activity [%]": 95.3}
{"SMILES": "O=C(O)/C=C/c1cc(Br)c(Br)c(Br)c1Br", "remaining activity [%]": 85.7}
{"SMILES": "NC(=O)c1ccc(-c2nc(-c3ccc4c(c3)OCCO4)c(-c3ccccn3)[nH]2)cc1", "remaining activity [%]": 98.1}
{"SMILES": "c1cc(-c2cnn3cc(-c4ccc(OCCN5CCCCC5)cc4)cnc23)ccn1", "remaining activity [%]": 93.9}
{"SMILES": "CNc1cc2c(Nc3cccc(Br)c3)ncnc2cn1", "remaining activity [%]": 96.8}
{"SMILES": "O=C1NC(=O)/C(=C/c2ccc3c(c2)OC(F)(F)O3)S1", "remaining activity [%]": 94.7}
{"SMILES": "C[C@@H](N)[C@H]1CC[C@H](C(=O)Nc2ccncc2)CC1", "remaining activity [%]": 98.4}
{"SMILES": "N#CC(c1ccnc(NCCc2cccnc2)n1)c1nc2ccccc2s1 (stereo not shown)", "remaining activity [%]": 107}
{"SMILES": "CC(C)(C)c1nc2c3cc[nH]c(=O)c3c3cc(F)ccc3c2[nH]1", "remaining activity [%]": 96.6}
{"SMILES": "O=C(c1ccccc1)c1ccc(N2CCOCC2)cc1O", "remaining activity [%]": 105}
{"SMILES": "CC(C)N(CCC(=O)c1ccc2ccccc2c1)Cc1ccccc1", "remaining activity [%]": 106}
{"SMILES": "NC(=O)c1cccc(-c2cc(Nc3ccc(OC(F)(F)F)cc3)ncn2)c1", "remaining activity [%]": 104}
{"SMILES": "Clc1ccc(Nc2nnc(Cc3ccncc3)c3ccccc23)cc1", "remaining activity [%]": 99.2}
{"data": "Block 4", "target": "Beta-1 adrenergic receptor (ADRB1, Homo sapiens, UniProt P08588)", "action": "agonist", "sequence of UniProt P08588 (whole entry, looked up)": "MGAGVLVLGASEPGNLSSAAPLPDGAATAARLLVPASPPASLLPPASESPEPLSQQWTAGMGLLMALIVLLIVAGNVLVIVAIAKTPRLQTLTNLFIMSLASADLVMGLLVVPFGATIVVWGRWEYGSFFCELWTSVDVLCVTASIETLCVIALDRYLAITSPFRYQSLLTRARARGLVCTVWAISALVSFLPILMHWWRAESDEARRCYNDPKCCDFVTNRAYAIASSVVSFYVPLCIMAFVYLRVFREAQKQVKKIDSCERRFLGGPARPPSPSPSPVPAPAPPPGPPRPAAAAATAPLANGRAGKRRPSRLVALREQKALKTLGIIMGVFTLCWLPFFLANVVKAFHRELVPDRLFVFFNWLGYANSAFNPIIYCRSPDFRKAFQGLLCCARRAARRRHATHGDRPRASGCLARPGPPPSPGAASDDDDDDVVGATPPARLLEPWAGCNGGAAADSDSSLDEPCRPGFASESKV"}
{"SMILES": "CN(C)c1ccc(-c2nnc([C@H]3CCN(c4nccc(C(F)(F)F)n4)C3)o2)cc1", "pEC50": "≤ 4.00"}
{"SMILES": "Cn1cc(-c2cnc(Nc3ccc(N4CCOCC4)cc3)c3c2CCO3)cn1", "pEC50": "≤ 4.00"}
{"SMILES": "Cc1noc2c(-c3ccc(N4CCOCC4)cc3)cc(-c3cccnc3)nc12", "pEC50": "≤ 4.00"}
{"SMILES": "Cn1c(C(O)C(O)c2ccccc2)nc2ccccc21 (stereo not shown)", "pEC50": "≤ 4.00"}
{"SMILES": "Cc1cnccc1CN(C)Cc1ccc2c(C)cc(=O)oc2c1", "pEC50": 6.00}
{"SMILES": "CCN1C(=O)COC[C@@H]1[C@H](O)c1ccc(NC(=O)c2cccs2)cc1", "pEC50": "≤ 4.00"}
{"SMILES": "Cc1cc(=O)oc2cc(NC(=O)[C@H](CCCCN)NC(=O)[C@H](CC3CCCCC3)NC(=O)OCC3c4ccccc4-c4ccccc43)ccc12", "pEC50": "≤ 4.00"}
{"SMILES": "c1cnc2c(CN3CCN(c4ccc5nccnc5n4)CC3)cccc2c1", "pEC50": "≤ 4.00"}
{"SMILES": "Cc1cc(C(C)Nc2ccccc2)c2nc(N3CCOCC3)cc(=O)n2c1 (stereo not shown)", "pEC50": "≤ 4.00"}
{"SMILES": "C=CCNC(=O)[C@@H]1Cc2cn(CC#CC)c3cccc(c23)[C@H](CC(C)C)N1", "pEC50": "≤ 4.00"}
{"SMILES": "CCOCCN1C(=O)COC[C@@H]1[C@H](O)c1ccc(NC(=O)Cc2ccccc2)cc1", "pEC50": "≤ 4.00"}
{"SMILES": "O=c1cc(N2CCNCC2)nc2sc3ccc4ccccc4c3n12", "pEC50": "≤ 4.00"}
{"SMILES": "Cc1noc2c(-c3cnn(C)c3)cc(-c3cccs3)nc12", "pEC50": "≤ 4.00"}
{"SMILES": "Fc1ccc(-c2noc([C@@H]3Cc4[nH]cnc4CN3CCCc3ccccc3)n2)cc1Cl", "pEC50": "≤ 4.00"}
{"SMILES": "O=c1oc2ccc(Br)cc2cc1-c1nc2c(s1)CCc1ccccc1-2", "pEC50": "≤ 4.00"}
